Measured values collected from several papers.
Every numbered part comes from another study and shows a few of its results, in no order.

Sample 1
Target: Runt-related transcription factor 3, Runt domain (RUNX3, Homo sapiens, UniProt Q13761, residues 53-186)
Sequence of UniProt Q13761 (53-186, looked up): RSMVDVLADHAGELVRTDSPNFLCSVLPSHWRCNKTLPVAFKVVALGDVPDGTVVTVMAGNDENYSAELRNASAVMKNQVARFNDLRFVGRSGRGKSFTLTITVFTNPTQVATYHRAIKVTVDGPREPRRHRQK
Technique: protein-binding microarray
Molecule type: hairpin DNA
Medium: in vitro
Tested at: not given
Notes: whole hairpin DNA, median over replicate spots
Baseline: not given
Reading: higher = stronger binding
| Strand | median fluorescence [a.u.] |
| --- | --- |
| GAGGCCCAACCGCGACAGCCTCCTGGCTGTCGCGGTTGGGCCTCACACTC (5mC at 13 31) | 9230 |
| CTCAGTCGTGTGGGCTGGACTCCTGTCCAGCCCACACGACTGAGACACTC | 4170 |
| GAGGCCCGTTGCGGTTGGCCTCCTGGCCAACCGCAACGGGCCTCACACTC (5mC at 37) | 9070 |
| GAGGCCCAACAGCAACAGCCTCCTGGCTGTTGCTGTTGGGCCTCACACTC | 4870 |
| CTCAGTTCCGTGGGCTGGACTCCTGTCCAGCCCACGGAACTGAGACACTC (5mC at 9 35) | 4360 |
| GAGGCCTGTCGCGGTAGGCCTCCTGGCCTACCGCGACAGGCCTCACACTC | 5310 |
| GAGGCCTGTTCGGGTTGGCCTCCTGGCCAACCCGAACAGGCCTCACACTC (5mC at 11) | 4950 |
| GAGGCCTCGTGTGGTTGGCCTCCTGGCCAACCACACGAGGCCTCACACTC (5mC at 8 36) | 4750 |

Sample 2
Target: Muscarinic acetylcholine receptor M2 (CHRM2, Homo sapiens, UniProt P08172)
Sequence of UniProt P08172 (whole entry, looked up): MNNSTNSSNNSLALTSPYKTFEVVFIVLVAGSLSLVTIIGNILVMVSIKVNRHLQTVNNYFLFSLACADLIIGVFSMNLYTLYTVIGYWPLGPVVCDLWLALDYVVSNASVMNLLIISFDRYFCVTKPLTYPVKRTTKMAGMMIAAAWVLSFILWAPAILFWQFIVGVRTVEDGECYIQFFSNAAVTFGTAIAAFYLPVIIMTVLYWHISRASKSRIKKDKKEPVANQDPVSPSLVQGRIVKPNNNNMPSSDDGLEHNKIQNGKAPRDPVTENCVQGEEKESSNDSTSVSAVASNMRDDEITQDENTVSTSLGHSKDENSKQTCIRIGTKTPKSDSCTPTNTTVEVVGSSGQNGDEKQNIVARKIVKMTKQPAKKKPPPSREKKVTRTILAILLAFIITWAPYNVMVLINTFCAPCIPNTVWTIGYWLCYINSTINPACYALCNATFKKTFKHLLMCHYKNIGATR
Observed: ligand displacement
Tested at: 10 µM
| Structure (SMILES) | inhibition |
| --- | --- |
| CO[C@H]1CC[C@H](CNc2ccc(S(=O)(=O)NC(=O)c3ccc(N4CCN(CC5=C(c6ccc(Cl)cc6)CC(C)(C)CC5)CC4)cc3Oc3cnc4[nH]ccc4c3)cc2[N+](=O)[O-])CC1 | -2.68% |
| C[C@H](c1ccnc(Nc2nc3ccc(-c4cc(N(C)C)ncn4)cc3[nH]2)c1)N1CCN(C(=O)CC(F)(F)F)CC1 | 32.9% |
| Cc1noc([C@H]2C[C@@H](c3ccc(C(F)(F)F)cc3)CN(C(=O)N3CCS(=O)(=O)C3)C2)n1 | 39.5% |
| CN(C)C(=O)c1sc2nc(N3CCC(S(C)(=O)=O)CC3)cc(C(F)(F)F)c2c1N | 13.4% |
| CS(=O)(=O)N1CCCC(NC(=O)[C@H](CCC2CCCCC2)NC(=O)c2ccc(CNC(=O)c3cnc4ccccn34)cc2)C1 (some centres unmarked) | 18.5% |
| O=C(NCCCC1CCCCC1)c1ccc(CNC(=O)c2cnn(-c3ccccc3)c2C(F)(F)F)cc1 | 19.3% |
| CC1=C(C#N)C(c2ccc3[nH]nc(C)c3c2)C(C#N)=C(C)N1 | -8.64% |
| Cc1ncc(-c2cc(Cl)ccc2F)cc1-n1c(=O)n(CC(N)=O)c2ccccc21 | 14.4% |
| COc1cc(-c2cn(C3CCc4c(F)cccc4N(CC(F)(F)F)C3=O)nn2)ccc1-n1cnc(C)c1 (centres unmarked) | 14.4% |
| COCCOc1nc(-c2ccc(Cl)nc2)nc2c1CN(C(=O)c1ncn3ccccc13)CC2 | 19.3% |
| Cc1cc(Nc2nccc(C)n2)cc(-c2cnc([C@@]3(O)CC[C@H](C(=O)O)C(C)(C)C3)s2)c1 | 8.6% |
| N#CC1(c2ccccn2)CCN(Cc2cc(C(=O)N3CCCC3)c(=O)n3ccccc23)CC1 | -14% |
| O=S(=O)(NC1CCC(c2cc(F)ccc2F)(S(=O)(=O)c2ccc(Cl)cc2)CC1)C(F)(F)F (centres unmarked) | -0.654% |
| CC[C@H](CC(=O)O)n1c(=O)c2ncccc2n(Cc2cn(C)c3cc(C)cc(C)c23)c1=O | 12% |
| CCC(F)(F)c1cc(N2CCC(S(C)(=O)=O)CC2)nc2sc(C(N)=O)c(N)c12 | 8% |

Sample 3
Target: Ephrin type-B receptor 1 (EPHB1, Homo sapiens, UniProt P54762)
Observed: enzyme activity
Action: inhibitor
Tested at: 0.5 µM
Baseline: control
Residues (P54762 1-984): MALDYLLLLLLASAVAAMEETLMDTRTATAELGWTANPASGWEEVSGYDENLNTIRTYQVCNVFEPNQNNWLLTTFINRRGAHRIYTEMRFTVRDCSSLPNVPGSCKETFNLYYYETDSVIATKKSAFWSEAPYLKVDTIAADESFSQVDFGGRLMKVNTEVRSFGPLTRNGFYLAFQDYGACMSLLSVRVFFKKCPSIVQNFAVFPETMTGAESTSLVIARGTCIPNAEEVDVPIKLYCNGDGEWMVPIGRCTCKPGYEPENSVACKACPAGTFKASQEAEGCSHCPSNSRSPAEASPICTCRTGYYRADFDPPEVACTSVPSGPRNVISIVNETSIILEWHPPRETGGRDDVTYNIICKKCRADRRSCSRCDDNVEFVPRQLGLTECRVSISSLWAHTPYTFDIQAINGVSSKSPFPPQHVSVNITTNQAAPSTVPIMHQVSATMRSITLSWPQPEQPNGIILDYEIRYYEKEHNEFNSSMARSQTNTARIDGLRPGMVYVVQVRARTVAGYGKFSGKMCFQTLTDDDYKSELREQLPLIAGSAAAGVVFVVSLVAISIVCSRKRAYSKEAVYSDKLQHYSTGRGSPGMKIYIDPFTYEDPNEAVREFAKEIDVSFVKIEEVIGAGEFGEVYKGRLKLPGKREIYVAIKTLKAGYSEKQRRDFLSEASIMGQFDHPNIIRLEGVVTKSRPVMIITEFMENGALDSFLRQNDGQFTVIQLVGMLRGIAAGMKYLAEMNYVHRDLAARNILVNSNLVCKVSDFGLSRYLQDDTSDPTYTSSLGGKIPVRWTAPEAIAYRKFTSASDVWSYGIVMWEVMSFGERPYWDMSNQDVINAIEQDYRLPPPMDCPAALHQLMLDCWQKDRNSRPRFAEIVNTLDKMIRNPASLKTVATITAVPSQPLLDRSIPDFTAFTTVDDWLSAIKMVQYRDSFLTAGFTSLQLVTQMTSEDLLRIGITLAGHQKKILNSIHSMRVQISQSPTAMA
| SMILES | remaining activity [%] |
| --- | --- |
| N#C/C(=C(/N)SC1C=CC=CC1)c1cccc(C(O)c2ccncc2)c1 (centres unmarked) | 95 |
| C[C@@H](N)[C@H]1CC[C@H](C(=O)Nc2ccncc2)CC1 | 95 |
| CCCCc1c(-c2ccc(O)cc2)[nH]c2nccnc12 | 78 |

Sample 4
Target: Sal-like protein 4, full length isoform B (SALL4, Homo sapiens, UniProt Q9UJQ4-2, residues 1-616)
Technique: universal PBM
Molecule type: double-stranded DNA, one strand shown
Medium: in vitro
Tested at: not given
Notes: 8-mer, flanks averaged, mean of replicates
Reading: higher = stronger binding
Construct (chain): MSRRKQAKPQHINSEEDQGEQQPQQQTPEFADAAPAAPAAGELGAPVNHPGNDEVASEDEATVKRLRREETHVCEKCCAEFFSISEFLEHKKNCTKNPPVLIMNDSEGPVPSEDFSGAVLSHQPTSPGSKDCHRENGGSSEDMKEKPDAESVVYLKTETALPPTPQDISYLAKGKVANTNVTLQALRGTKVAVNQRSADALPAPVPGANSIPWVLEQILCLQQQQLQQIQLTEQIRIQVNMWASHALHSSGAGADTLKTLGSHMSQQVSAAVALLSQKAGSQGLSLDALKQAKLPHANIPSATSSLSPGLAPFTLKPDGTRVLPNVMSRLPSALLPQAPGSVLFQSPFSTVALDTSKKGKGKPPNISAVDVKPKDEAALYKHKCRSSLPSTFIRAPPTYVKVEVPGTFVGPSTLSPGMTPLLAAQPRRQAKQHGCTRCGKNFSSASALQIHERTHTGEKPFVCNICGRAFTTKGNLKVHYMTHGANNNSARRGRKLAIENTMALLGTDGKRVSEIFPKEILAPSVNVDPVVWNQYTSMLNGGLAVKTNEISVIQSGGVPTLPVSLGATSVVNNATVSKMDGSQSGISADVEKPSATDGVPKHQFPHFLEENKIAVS
| Strand | E-score |
| --- | --- |
| ACGGAACA | -0.0663 |
| CAGCACCG | -0.335 |
| GCCGACCC | -0.372 |
| GTCGCGTA | -0.0323 |
| GCGCGTCA | -0.14 |
| AGCGCGCA | -0.107 |
| AGTATCCA | 0.0362 |
| AACACTGA | 0.0887 |

Further values, each from its own experiment
| SMILES | system | setting | endpoint | value |
| --- | --- | --- | --- | --- |
| O=C1CCC(N2Cc3cc(C4CCN(Cc5ccccc5)CC4)ccc3C2=O)C(=O)N1 (centres unmarked) | ICR mouse, male, plasma | intravenous, 1.0 mg/kg | CL | 54.2 mL/min/kg |

Excerpt of the above (sample 1):
| Strand | median fluorescence [a.u.] |
| --- | --- |
| CTCAGTCGTGTGGGCTGGACTCCTGTCCAGCCCACACGACTGAGACACTC | 4170 |
| GAGGCCTCGTGTGGTTGGCCTCCTGGCCAACCACACGAGGCCTCACACTC (5mC at 8 36) | 4750 |
| GAGGCCTGTTCGGGTTGGCCTCCTGGCCAACCCGAACAGGCCTCACACTC (5mC at 11) | 4950 |
| GAGGCCCGTTGCGGTTGGCCTCCTGGCCAACCGCAACGGGCCTCACACTC (5mC at 37) | 9070 |
